Results collected from several papers.
Compare with care: the assays were run in different laboratories. “And” joins repeats or separate records; there may be more than shown. Numbers after ± are the reported error.

Cc1ccc(/C=N/N=C(\S)Nc2cccc(S(=O)(=O)N(C)C)c2)o1  IC50 (LDR; cell viability, MTS; 4 days): 21.5 µM
CC(C)=CCC1=C([O-])C(=O)c2ccccc2C1=O.CC(C)=CCC1=C([O-])C(=O)c2ccccc2C1=O.Cc1cc2cccnc2c2ncccc12.[Cu+2]  IC50 (A2780; cell viability, MTT; 24 h): 0.55 µM and ~0.6 µM
CCCCCCCC(=O)Oc1c(C)c(OC)c2c(c1C)OC(=O)[C@@H](CCCCCC)[C@]2(O)/C=C/c1ccccc1 (racemic)  IC50 (KKU-M213; cell growth or viability, SRB; 72 h): > 50 µM
CC1(C)CCC(CN2CCN(c3ccc(C(=O)NS(=O)(=O)c4ccc(NCC5COCCO5)c([N+](=O)[O-])c4)c(N4CCCOc5nc6[nH]ccc6cc54)c3)CC2)=C(c2ccc(Cl)cc2)C1 (stereo not drawn)  IC50 (primary human CLL cells, treatment-naive; apoptosis, TMRM and annexin V; 18 h): 5.6e-05 µM
CC(C)N(C[C@H]1O[C@@H](n2cnc3c(N)ncnc32)[C@H](O)[C@@H]1O)C1CC2CN(Cc3cc(F)cc(Br)c3)CC2C1 (stereo partly drawn)  IC50 (H460 R231Q; cell proliferation, CCK-8; 72 h): > 100 µM
O=C(NN1C(=O)c2ccccc2NC1c1ccc([N+](=O)[O-])o1)c1ccc([N+](=O)[O-])cc1 (stereo not drawn)  IC50 (LDR; cell viability, MTS; 4 days): 49 µM
CN(C)/C=C/C(=O)c1ccc2[nH]c3ncc(-c4ccc(N5CCN(C)CC5)cc4)cc3c2c1  IC50 (SUP-M2; cell growth or viability): 0.54 µM
CC(C)Cc1ccc(C(C)C(=O)[O][Pt]([NH2])([NH2])([Cl])([Cl])[O]C(=O)CCCc2ccccc2)cc1 (stereo not drawn)  IC50 (PSN1 3D spheroids): 3.63 ± 0.53 µM
CC(=O)OC1CC2C(C)(C)C(O)CCC2(C)C2CCC34CC3(CCC4C(C)CC3OC(C)(C)OC(C)(C)C3O)C12C (stereo not drawn)  IC50 (fibroblasts; cytotoxicity, MTT): 18.4 ± 1.1 µM
COc1ccc(NC(=O)CSc2nc3c(oc4ccccc43)c(=O)n2Cc2ccco2)cc1Cl  IC50 (LDR; cell viability, MTS; 4 days): > 50 µM
CN(C)CCO/N=C1/C=C2CCC3C(CC[C@]4(C)/C(=C/c5ccccn5)CCC34)[C@@]2(C)CC1 (stereo partly drawn)  IC50 (G-361; cell growth or viability, resazurin; 72 h): 10.6 µM
COc1cc2c(cc1/C(C)=N/O)CCC1C(C)(C)c3nc(C)ncc3C[C@]21C (mixture of isomers)  IC50 (TM3; cell growth or viability, SRB; 24 h): > 100 µM
CCC(=O)N1CCN(c2ccc(NC(=O)c3ccc([N+](=O)[O-])o3)cc2Cl)CC1  IC50 (LDR; cell viability, MTS; 4 days): 1.4 µM
CCC(C(=O)O)C1CCC(C)C(C(C)C(O)C(C)C(=O)C(CC)C2OC3(C=CC(NCc4cn(CCCO)nn4)C4(CCC(C)(C5CCC(O)(CC)C(C)O5)O4)O3)C(C)CC2C)O1 (stereo not drawn)  IC50 (HMLER CD24high/CD44low; cell viability, CellTiter-Blue; 72 h): 23.7 ± 0.9 µM
COc1cc(NC(=O)c2ccc(F)cc2)ccc1C(=O)Nc1ccc(Cl)c(-c2nc3ccccc3[nH]2)c1  IC50 (NIH3T3-Gli-Luc; Hedgehog signalling, Gli-luciferase reporter; added: Shh-conditioned medium): 0.34 ± 0.07 µM
Cc1ccc(C(C)C)cc1.Cc1ncc(CO)c(C=NNC2=Nc3ccccc3-c3[nH]c4ccc(Br)cc4c3C2)c1O.[Cl-].[Cl][Ru+]  IC50 (CH1; cell growth or viability, MTT; 96 h): 1.5 µM
C[N+]1(C)CC[NH2+][Pt-2]1([OH])([OH])([Cl])[Cl]  IC50 (CH1; cell growth or viability, MTT; 96 h): 3.3 µM
CC(C)c1cccc(C(C)C)c1-n1ccn(-c2c(C(C)C)cccc2C(C)C)c1=[Se].[Cl][Ag]  IC50 (A-431; cell growth or viability, MTT; 72 h): 0.4 µM
C#CCN(CC(=O)O[C@H]1[C@H](C)O[C@@H](O[C@H]2[C@H](N(C)C)[C@@H](O)[C@H](O[C@H]3[C@@H](CC=O)C[C@@H](C)[C@@H](O[C@H]4CC[C@H](N(C)C)[C@@H](C)O4)/C=C/C=C/C[C@@H](C)OC(=O)C[C@@H](O)[C@@H]3OC)O[C@@H]2C)C[C@@]1(C)O)C(=O)c1ccc(C(F)(F)F)cc1  IC50 (HGC-27; cell viability, CCK-8; 72 h, without N-acetylcysteine): 0.219 µM
CCNC(=O)OCc1c(COC(=O)NCC)c(-c2ccc(OC)cc2)n2c1Cc1ccccc1-2  IC50 (CL1-5; cell growth or viability, resazurin; 72 h): 26.5 µM
O=c1sn(Cc2ccccc2)c(=O)n1C1CC1  IC50 (A 172; cell growth or viability; 72 h): 22.3 µM
N=C(N)NCCC[C@H](N)C(=O)N1CCC[C@H]1C(=O)N[C@@H](CC(=O)N[C@@H](Cc1ccc(O)cc1)C(=O)O)c1cccc2ccccc12  IC50 (BT-474 (HER2-overexpressing)): > 50 µM
Nc1cccc[n+]1CCCCC[n+]1ccccc1N  IC50 (3T3-L1; cell viability, MTT; 72 h): > 100 µM
N[C@@H]1CCCC[C@H]1N.O=C1[O][Pt]2([O]C1=O)[O]C(=O)C(=O)[O]2  IC50 (CH1; cell viability, MTT; 96 h): 4.1 ± 0.9 µM
N=C(N/N=C/c1ccc2ccccc2c1)N/N=C/c1ccc2ccccc2c1  IC50 (IMR-90; cell growth or viability, crystal violet; 72 h): 119 µM
CCCCCCCCC=CCCCCCCCC(=O)OCC1OC(n2ccc(N)nc2=O)C(F)(F)C1O (stereo not drawn)  IC50 (C26-G (mouse, gemcitabine-resistant); cell growth, SRB; 72 h): 0.03 ± 0.02 µM
COC(=O)[C@H]1[C@H]2C[C@H]3O[C@@]4(CCN3C[C@H]2C[C@@H](OC(=O)c2cc(OC)c(OC)c(OC)c2)[C@@H]1OC)C(=O)Nc1cc(OC)c(-c2ccc(C)cc2)cc14  IC50 (CAPAN-1; cell growth or viability, crystal violet; 72 h): 22.2 µM
O=C(N/N=C/c1ccccn1)c1cc(-c2ccc(Cl)cc2)nc2ccccc12  IC50 (HCC4017; cell growth or viability, MTS; 96 h): > 50 µM
COC(=O)[C@@H]1[C@@H](OC)[C@H](OC(=O)c2cc(OC)c(OC)c(OC)c2)C[C@@H]2CN3CC[C@]4(O[C@@H]3C(=O)[C@@H]21)C(=O)Nc1cc(OC)c(-c2ccc(C(F)(F)F)cc2)cc14  IC50 (CAPAN-1; cell growth or viability, crystal violet; 72 h): 4.21 µM
CN(C)CCCO/N=C1/C=C2CCC3C(CC[C@]4(C)/C(=C/c5ccccn5)CCC34)[C@@]2(C)CC1 (stereo partly drawn)  IC50 (G-361; cell growth or viability, resazurin; 72 h): 2.8 µM
COc1cccc(/C=N/Nc2nc(Nc3ccccc3)nc(-n3nc(C)cc3C)n2)c1O  IC50 (LDR; cell viability, MTS; 4 days): 1 µM
C=C(C)[C@@H]1CC[C@]2(C(=O)OCO/N=[N+](\[O-])N3CCCC3)CC[C@]3(C)[C@H](CC[C@@H]4[C@@]5(C)CC[C@H](OC(C)=O)C(C)(C)[C@@H]5CC[C@]43C)[C@@H]12  IC50 (B16-F10; cell growth or viability, MTT; 72 h): 0.89 µM
CC(=O)Oc1ccc(/C=C/C(=O)Nc2nc(=O)n([C@@H]3O[C@H](C)[C@@H](OC(C)=O)[C@H]3OC(C)=O)cc2F)cc1  IC50 (BxPC-3; cell viability, MTT; 72 h): 13.6 ± 2.48 µM
N=C(N)NCCC[C@H](N)C(=O)N[C@H](CC(=O)N[C@@H](Cc1ccc(O)cc1)C(=O)O)c1cccc2ccccc12  IC50 (BT-474 (HER2-overexpressing)): > 50 µM
CCCCc1ccc(C(=O)O[C@H]2[C@H](C)O[C@@H](O[C@H]3[C@H](N(C)C)[C@@H](O)[C@H](O[C@H]4[C@@H](CC=O)C[C@@H](C)[C@@H](O[C@H]5CC[C@H](N(C)C)[C@@H](C)O5)/C=C/C=C/C[C@@H](C)OC(=O)C[C@@H](O)[C@@H]4OC)O[C@@H]3C)C[C@@]2(C)O)cc1  IC50 (HGC-27; cell growth or viability, CCK-8; 72 h): 1.66 µM
COC(=O)CCC(=O)[O][Pt-2]1([OH])([Cl])([Cl])[NH2+]CC[N+]1(C)C  IC50 (CH1; cell growth or viability, MTT; 96 h): 3.1 µM
Cl.[Cl][Ru-]1[S+]=C(N2CCCC2)N[N+]1=Cc1ccc(N(c2ccccc2)c2ccccc2)cc1.c1ccccc1  IC50 (IMR-90; cell viability, MTT; 24 h): 39 ± 4.7 µM
CCC(CC)CNC(=N)NC(=N)NCCCCCCNC(=N)NC(=N)NCC(CC)CC  IC50 (NCI-H1299; cell growth or viability; 72 h): 3 µM
CC1(C)[C@@H](O)CC[C@]2(C)[C@H]3C(=O)C=C4[C@@H]5C[C@@](C)(C(=O)O)CC[C@]5(C)CC[C@@]4(C)[C@]3(C)CC[C@@H]12  IC50 (IOSE80; cell growth or viability, MTT; 48 h): > 100 µM
C[N+]1(C)CC[NH2+][Pt-2]1([OH])([Cl])([Cl])[O]C(=O)CCC(=O)O  IC50 (CH1; cell growth or viability, MTT; 96 h): 8.4 µM
CCN1/C(=C/C=C2\CCCC(/C=C/C3=[N+](CC)c4ccccc4C3(C)C)=C2NCCCCCCCCN2CCC(Nc3nc4ccccc4n3Cc3ccc(F)cc3)CC2)C(C)(C)c2ccccc21  IC50 (A 172; cell growth or viability, CCK-8; 72 h): ~1 µM
CCCCCCOc1c(O)cc(C(=O)O[C@@H]2Cc3c(O)cc(O)cc3O[C@@H]2c2cc(O)c(O)c(O)c2)cc1O  IC50 (A-431; cell growth or viability, CCK-8; 24 h): 105 µM
CCC(C(=O)O)C1CCC(C)C(C(C)C(O)C(C)C(=O)C(CC)C2OC3(C=CC(NCc4cn(CSc5ccccc5)nn4)C4(CCC(C)(C5CCC(O)(CC)C(C)O5)O4)O3)C(C)CC2C)O1 (stereo not drawn)  IC50 (HMLER CD24high/CD44low; cell viability, CellTiter-Blue; 72 h): 0.98 ± 0.3 µM
Cc1ccc(C(C)C)cc1.Oc1ccccc1C=NNC1=Nc2ccccc2-c2[nH]c3ccc(Br)cc3c2C1.[Cl-].[Cl][Os+]  IC50 (CH1; cell growth or viability, MTT; 96 h): 1.6 µM
CO[C@@H]1[C@@H](O[C@@H]2O[C@H](C)[C@@H](O[C@H]3C[C@@](C)(O)[C@@H](OC(=O)NC4CCCCC4)[C@H](C)O3)[C@H](N(C)C)[C@H]2O)[C@@H](CC=O)C[C@@H](C)[C@@H](O[C@H]2CC[C@H](N(C)C)[C@@H](C)O2)/C=C/C=C/C[C@@H](C)OC(=O)C[C@H]1O  IC50 (HGC-27; cell growth or viability, CCK-8; 72 h): > 50 µM
C1=[N+]2CCCC[N+]3=Cc4ccc5[n]4[Au-]23[n]2c1ccc2-c1nc2ccccc2nc1-5.F[P-](F)(F)(F)(F)F  IC50 (NCI60 non-small cell lung lines): 15 µM
CCCCCCCC(=O)O[C@H]1[C@H](C)O[C@@H](O[C@H]2[C@H](N(C)C)[C@@H](O)[C@H](O[C@H]3[C@@H](CC=O)C[C@@H](C)[C@@H](O[C@H]4CC[C@H](N(C)C)[C@@H](C)O4)/C=C/C=C/C[C@@H](C)OC(=O)C[C@@H](O)[C@@H]3OC)O[C@@H]2C)C[C@@]1(C)O  IC50 (HGC-27; cell growth or viability, CCK-8; 72 h): 3.96 µM
N=C(N/N=C/c1cc2ccccc2c2ccccc12)N/N=C/c1cc2ccccc2c2ccccc12  IC50 (IMR-90; cell growth or viability, crystal violet; 72 h): 190 µM
N[C@@H](CCC(=O)N[C@@H](CS[Se]Cc1ccc(-c2cc(C(F)(F)F)nn2-c2ccc(S(N)(=O)=O)cc2)cc1)C(=O)NCC(=O)O)C(=O)O  IC50 (1205 Lu melanoma cells; cell viability, MTS; 24 h): 24.6 ± 2.2 µM
Cc1cc(O)cc2c1O[C@](C)(CCC[C@H](C)CCC[C@H](C)CCCC(C)C)CC2  IC50 (RPMI-7951; cell growth or viability, MTT; 24 h): 5.69 µM
Cn1cc(-c2cc(N3CCCCS3(=O)=O)ccc2N[C@H]2CC[C@](C)(O)CC2)c2cc[nH]c2c1=O  IC50 (Light II cells; GLI reporter gene, inhibitor; Hedgehog pathway): 0.00134 ± 0.00048 µM
O=C1NC(c2ccc(N3CCOCC3)cc2)(c2ccsc2)CC(O)=C1Sc1ccccc1Cl (stereo not drawn)  IC50 (SNU-398; lactate production, item: lactate in supernatant; 6 h): > 2 µM
COCC/N=C(\S)N/N=C(\C)c1ccccc1O  IC50 (LDR; cell viability, MTS; 4 days): 3.6 µM
COCCN1CCN(c2ccc(Oc3ccc(F)cc3F)c(-c3cn(C)c(=O)c4[nH]ccc34)c2)S1(=O)=O  IC50 (Light II cells; GLI reporter gene, inhibitor; Hedgehog pathway): 0.0261 ± 0.00517 µM
